Measured values from different studies.
Protocols differ between the studies behind these lines. ± gives the spread as reported.

| SMILES | organism | assay | system | conditions | IC50 |
| --- | --- | --- | --- | --- | --- |
| CC1(C)C(=O)C(=C(O)C=Cc2ccccc2)C(=O)C2=C1OC1(CC2)CCC2CC1C2(C)C (stereo not shown) | human respiratory syncytial virus | viral replication, CPE reduction | HEp-2, A2 | – | > 50 µM |
| Nc1ncnc2c(CN3C[C@H](CSc4cnccn4)[C@@H](O)C3)c[nH]c12 | Campylobacter jejuni | colony formation | – | 144 h, Mueller-Hinton agar | 3 ± 0.7 µM |
| COc1ccccc1NC(=O)OC1C(C)C(OC)C=COC2(C)Oc3c(C)c(O)c4c(c3C2=O)C2=NC3(CCN(CC(C)C)CC3)NC2=C(NC(=O)C(C)=CC=CC(C)C(O)C(C)C(O)C1C)C4=O (stereo not shown) | Mycobacteroides abscessus | intracellular bacterial growth | THP-1 derived macrophages, ATCC 19977 | – | 0.01 µM |
| CCCCCCCCCC1CC2CCCC3CC(CCCCCCCCC)NC(=N1)N23 (stereo not shown) | Mycobacterium intracellulare | microbial growth | ATCC23068 | – | 9.81 µM |
| CC(C)=CCC1CC(=O)C(C)=CC2C=C(C)CC(c3ccccc3)C2C(=O)C2=C(O)C(C)(CC=C1C)C(=O)C(C)(C)C2=O (stereo not shown) | human respiratory syncytial virus | viral replication, CPE reduction | HEp-2, A2 | – | 1.71 ± 0.61 µM |
| CCN(CC)CC#CCNc1ccnc2cc(Cl)ccc12 | Plasmodium falciparum | schizont maturation | field isolates | Albumax medium | 0.11 µM |
| O=[N+]([O-])c1ccc(/C=N/N=C/c2ccc(O)cc2)o1 | Trypanosoma brucei rhodesiense | parasite growth, CellTiter-Glo | IL1501 bloodstream form | 72 h | 4.81 ± 1.1 µM |
| COC1C=COC2(C)Oc3c(C)c(O)c4c(c3C2=O)C2=NC3(CCN(CC(C)C)CC3)NC2=C(NC(=O)C(C)=CC=CC(C)C(O)C(C)C(O)C(C)C(OC(=O)c2cncnc2)C1C)C4=O (stereo not shown) | Mycobacteroides abscessus | – | ATCC 19977 | 1:1 CAMHB:human serum | 0.048 µM |
| C=C1CC[C@H]2Cc3c(c(C)c(O)c(C(=O)/C=C/c4ccccc4)c3OC)O[C@]2(C)CC[C@@H]2[C@@H]1CC2(C)C | human respiratory syncytial virus | viral replication, CPE reduction | HEp-2, A2 | – | 50 µM |
| O=C1CSC(c2cccc(Br)c2)N1c1cc(Cl)ccc1O (stereo not shown) | Listeria | Listeria comet tail motility, inhibitor | SK-OV-3 | – | 31 µM |
| O=[N+]([O-])c1ccc(/C=N/N=C/c2ccc(F)cc2)o1 | Trypanosoma congolense | parasite growth, CellTiter-Glo | IL3000 bloodstream form | 72 h, 33 °C | 0.18 ± 0.07 µM |
| CCCCCCC[C@@H](CO)NCc1c[nH]c2c(N)ncnc12 | Campylobacter jejuni | colony formation | – | 144 h, Mueller-Hinton agar | 5.6 ± 0.8 µM |
| C=C1CC[C@@H]2Cc3c(O)c(C(=O)/C=C/c4ccccc4)c(OC)c(C)c3O[C@@]2(C)CC[C@@H]2[C@@H]1CC2(C)C | human respiratory syncytial virus | viral replication, CPE reduction | HEp-2, A2 | – | 50 µM |
| N=C(N)c1ccc(/C=C/c2ccc(C(=N)N)cc2O)cc1 | Streptococcus mutans | biofilm formation, crystal violet | – | – | 104 µM |
| CC1=CCC(C)(C)C=CCC2(C)OC3=C(CC2CC1)C(=O)C(=C(O)C=Cc1ccccc1)C(=O)C3(C)C (stereo not shown) | human respiratory syncytial virus | viral replication, CPE reduction | HEp-2, A2 | – | 13.1 ± 1.23 µM |
| COc1ccc(N2C(=O)CSC2c2cccc(Br)c2)c(OC)c1 (stereo not shown) | Listeria | Listeria comet tail motility, inhibitor | SK-OV-3 | – | 7 µM |
| COc1c(C)c(O)c(C)c(O)c1C(=O)C1C(CC=C(C)C=O)C(C)=CCC1c1ccccc1 (stereo not shown) | human respiratory syncytial virus | viral replication, CPE reduction | HEp-2, A2 | – | 50 µM |
| O=[N+]([O-])c1ccc(/C=N/N=C/c2ccc(OCc3ccccc3)cc2)o1 | Trypanosoma congolense | parasite growth, CellTiter-Glo | IL3000 bloodstream form | 72 h, 33 °C | 0.03 ± 0.01 µM |
| C=C1CCC2CC3=C(OC2(C)CCC2C1CC2(C)C)C(C)(C)C(=O)C(=C(O)C=Cc1ccccc1)C3=O (stereo not shown) | human respiratory syncytial virus | viral replication, CPE reduction | HEp-2, A2 | – | 25.8 ± 3.75 µM |
| Oc1ccc(/C=C/c2ccc(O)cc2)cc1 | Streptococcus mutans | biofilm formation, crystal violet | – | – | 344 µM |
| O=[N+]([O-])c1ccc(/C=N/N=C/c2ccc(Br)cc2)s1 | Trypanosoma brucei rhodesiense | parasite growth, CellTiter-Glo | IL1501 bloodstream form | 72 h | 0.94 ± 0.31 µM |
| CC(C)C1CCC(C)C23CC4CC5=C(OC4(C)C2C13)C(C)(C)C(=O)C(=C(O)C=Cc1ccccc1)C5=O (stereo not shown) | human respiratory syncytial virus | viral replication, CPE reduction | HEp-2, A2 | – | 31.2 ± 8.75 µM |
| O=C(Nc1ccc2c(c1)CN(c1ccc(F)c(F)c1)C2=O)N1CCN(c2ccc(F)cc2)CC1 | Trypanosoma brucei | parasite growth, resazurin | RHODESIENSE | – | 2 µM |
| O=[N+]([O-])c1ccc(/C=N/N=C/c2ccc(Br)cc2)o1 | Trypanosoma brucei rhodesiense | parasite growth, CellTiter-Glo | IL1501 bloodstream form | 72 h | 0.86 ± 0.23 µM |
| COC1C=COC2(C)Oc3c(C)c(O)c4c(c3C2=O)C2=NC3(CCN(CC(C)C)CC3)NC2=C(NC(=O)C(C)=CC=CC(C)C(O)C(C)C(O)C(C)C(OC(=O)Nc2cccnn2)C1C)C4=O (stereo not shown) | Mycobacteroides abscessus | – | ATCC 19977 | 50% human serum | 0.26 µM |
| COc1ccc(/C=N/N=C/c2ccc([N+](=O)[O-])o2)cc1 | Trypanosoma congolense | parasite growth, CellTiter-Glo | IL3000 bloodstream form | 72 h, 33 °C | 0.22 ± 0.08 µM |
| CCCCCCSC[C@H]1CN(Cc2c[nH]c3c(N)ncnc23)C[C@@H]1O | Campylobacter jejuni | cell growth | Mueller-Hinton broth | 16.4 h | 1.3 ± 0.3 µM |
| CCCCCCCCCCCCCCCCC1CC(=O)NCCCN(C)CCCCN(C)CCCN1C (stereo not shown) | Mycobacterium intracellulare | microbial growth, resazurin | ATCC23068 | – | 1.5 µg/mL |
